Results pooled from the literature.
± gives the spread as reported.

`O=Cc1ccc(-c2ccc(O)cc2)c(C(=C2C=CC(=O)C=C2)c2ccc(O)cc2)c1C#Cc1ccc(O)cc1` has an IC50 of 9.95 µM (MGC-803; cell growth or viability, MTT; 48 h).
`NC(=O)c1ccc(-c2ccccc2Cl)c2c3c([nH]c12)CC[C@@H](N)C3` gave an IC50 of 0.0756 µM (NCI-H446; cell proliferation; 96 h).
For `COc1ccc(C2CC(=O)c3c(cc(O)c(CC=C(C)C)c3O)O2)cc1` (centres unmarked), the IC50 was over 120 µM (normal pig cell line; cytotoxicity, MTT; 48 h).
With `CC(=O)[O][Pt]([NH2])([NH2])([Cl])([Cl])[O]C(=O)C(C)c1ccc(CC(C)C)cc1` (centres unmarked) the IC50 was 1.5 ± 0.3 µM (C13* cisplatin-resistant ovarian; cytotoxicity, MTT; 72 h).
`Cc1cnc2nc1Nc1cccc(c1)COCCCCOCc1cc(ccc1OCCN1CCCC1)N2` has an IC50 of 9.46 µM (SET-2; cell growth or viability, CCK-8).
`COc1cc(C(=O)N/N=C/c2cccc3ccccc23)cc(OC)c1OC` gave an IC50 of 0.0892 µM (TALL-1; cell growth or viability, MTT; 48 h).
`C=CC(=O)N1CCC[C@@H](c2ccc(C(N)=O)c3[nH]ccc23)C1` has an IC50 of 0.199 µM (TMD8, parental; cell viability, CellTiter-Glo; 4 days).
For `CC(C)c1ccc(N(C)c2ccc3c(c2)OCC[C@H]3CNc2cnccc2C(=O)O)cc1`, the IC50 was at least 10 µM (MDA-MB-436; cell growth or viability, ATP luminescence; 7 days).
With `CNS(=O)(=O)Nc1nccc(Cc2c(C)c3ccc(Oc4ncccc4F)cc3oc2=O)c1F` the IC50 was 0.719 µM (NCI-H2110; cell viability; 7 days).
With `Cc1ccc(-n2cc(CSc3nc4ccccc4n3Cc3cn(-c4ccc(C)cc4)nn3)nn2)cc1` the IC50 was 5.42 µg/mL (MDA-MB-231; cell growth or viability, MTT).
`O=C1C2=Nc3ccccc3CN2C(=S)N1[C@H]1CCCc2ccccc21` gave an IC50 of 37.9 ± 1.5 µM (healthy human PBMCs; cell viability, resazurin).
`CCOc1cncc(-c2ccc(NC(=O)C3(c4ccnc(NS(=O)(=O)C5CC5)n4)CCOCC3)nc2)n1` has an IC50 of 0.037 µM (KG-1a; cell proliferation, CellTiter-Glo; 72 h).
The IC50 of `CC(C)=CC1OC(C)(C)C2C=C3C(=O)C(Cl)=CC(O)C3C3C(O)C4OC4C(=O)C132` (centres unmarked) is reported as 3.06 µM (MGC-803; cell growth or viability, MTS).
`O=C(Nc1ccc(C(=O)Nc2ccc3[nH]ncc3c2)cc1F)Nc1cc(C(F)(F)F)ccc1F` has an IC50 of 33.4 µM (KM12; cell growth or viability, ATP luminescence; 72 h).
For `C[C@H](c1ccccc1)N1C(=O)C2=Nc3ccccc3CN2C1=S`, the IC50 was 5.9 ± 0.8 µM (healthy human PBMCs; cell viability, resazurin).
With `O=C(Nc1cc(C(F)(F)F)ccc1F)Nc1ccc(C(=O)Nc2ccc3[nH]ncc3c2)cc1C(F)(F)F` the IC50 was 24.7 µM (KM12; cell growth or viability, ATP luminescence; 72 h).
For `O=[N+]([O-])c1ccc(C=NNC(Nc2ccccc2)=[S+][Au-][Cl])o1`, the IC50 was 40 µM (CAKI-1; cell growth or viability, resazurin).

A few entries again:
`CCOc1cncc(-c2ccc(NC(=O)C3(c4ccnc(NS(=O)(=O)C5CC5)n4)CCOCC3)nc2)n1` has an IC50 of 0.037 µM (KG-1a; cell proliferation, CellTiter-Glo; 72 h).
The IC50 of `CC(C)=CC1OC(C)(C)C2C=C3C(=O)C(Cl)=CC(O)C3C3C(O)C4OC4C(=O)C132` (centres unmarked) is reported as 3.06 µM (MGC-803; cell growth or viability, MTS).
